Experimental data gathered from unrelated publications.
Lines come from different studies, so protocols differ.
TDP1: Tyrosyl-DNA phosphodiesterase 1 (TDP1, Homo sapiens, UniProt Q9NUW8)
UniProt Q9NUW8, sequence (whole entry, looked up): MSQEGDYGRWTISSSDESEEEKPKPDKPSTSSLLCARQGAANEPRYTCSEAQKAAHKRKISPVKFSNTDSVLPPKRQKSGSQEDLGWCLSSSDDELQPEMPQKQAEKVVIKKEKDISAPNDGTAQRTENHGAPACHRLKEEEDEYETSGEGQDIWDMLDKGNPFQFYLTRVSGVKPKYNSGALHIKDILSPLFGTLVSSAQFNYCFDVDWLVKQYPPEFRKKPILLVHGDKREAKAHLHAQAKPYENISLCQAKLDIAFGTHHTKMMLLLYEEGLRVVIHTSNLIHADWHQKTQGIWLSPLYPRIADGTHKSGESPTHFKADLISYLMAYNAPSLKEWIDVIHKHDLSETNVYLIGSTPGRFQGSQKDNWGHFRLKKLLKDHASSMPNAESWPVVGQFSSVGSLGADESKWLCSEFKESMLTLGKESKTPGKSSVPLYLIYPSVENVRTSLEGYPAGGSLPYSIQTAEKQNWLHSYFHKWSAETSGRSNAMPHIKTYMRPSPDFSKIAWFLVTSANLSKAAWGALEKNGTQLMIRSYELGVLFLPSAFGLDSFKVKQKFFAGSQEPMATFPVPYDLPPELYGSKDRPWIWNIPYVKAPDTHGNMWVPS
UniProt P33261, sequence (whole entry, looked up): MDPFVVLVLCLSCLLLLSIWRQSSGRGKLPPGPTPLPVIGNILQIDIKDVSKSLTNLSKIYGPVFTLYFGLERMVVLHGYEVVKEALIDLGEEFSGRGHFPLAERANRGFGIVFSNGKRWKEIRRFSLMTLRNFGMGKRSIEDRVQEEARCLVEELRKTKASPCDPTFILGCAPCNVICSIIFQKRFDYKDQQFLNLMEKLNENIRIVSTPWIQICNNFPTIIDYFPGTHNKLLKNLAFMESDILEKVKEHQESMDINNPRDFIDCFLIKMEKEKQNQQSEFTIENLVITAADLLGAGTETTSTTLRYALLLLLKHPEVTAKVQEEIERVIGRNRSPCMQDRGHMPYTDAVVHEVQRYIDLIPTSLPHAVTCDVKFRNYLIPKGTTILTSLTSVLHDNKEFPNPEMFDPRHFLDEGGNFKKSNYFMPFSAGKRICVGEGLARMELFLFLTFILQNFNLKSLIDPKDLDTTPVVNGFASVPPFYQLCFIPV

Structure (SMILES) | target or system | test | test system | setting | scale | quantity | result
O=C1OCc2cc(O)c(=O)c(O)c(O)c21 | HepDES19 | cell growth or viability, MTS | – | 72 h | – | CC50 | 36.3 µM
CNC(=O)C1CCCN(C(=O)C2CC3CCC2N3C(=O)[C@@H]2C[C@@H](O)CN2C(=O)NCc2cccc(Cl)c2F)C1 (mixture of isomers) | CYP2C19 (Homo sapiens, UniProt P33261) | enzyme activity, inhibitor, time-dependent inhibition | – | 5.56 µM, preincubated without NADPH | reference: negative control | remaining activity | 87.9%
CCN(CC)CC#CCNc1ccnc2cc(Cl)ccc12 | Salmonella typhimurium | mini-Ames test | TA100 | 125.0 µg/well, without S9 | – | revertants per well | 25
O=c1c(O)ccc(-c2cnc3ccccc3c2)cc1O | HepDES19 | cell growth or viability, MTS | – | 72 h | – | CC50 | 16.9 µM
O=C(O)c1ccc(Nc2c(-c3ccc(CON=CC4=C(Cl)c5ccccc5CC4)cc3)nc3cc(-c4ccccc4)ccn23)cc1 (mixture of isomers) | TDP1 | enzyme activity, inhibitor | – | 100 µM, unpurified compound | – | inhibition | 34.7%
CC(C)=CCc1ccc(=O)c(O)cc1C(C)C | HepDES19 | cell growth or viability, MTS | – | 72 h | – | CC50 | 13.8 µM
Nc1nc2cc(C(=O)c3ccc(F)cc3)ccc2[nH]1 | Escherichia coli | Ames preincubation test | WP2 uvrA | 156.0 µg/plate, without S9 | – | revertants | 35.3 revertants/plate
N#C[C@@H]1CC(F)(F)CN1C(=O)CNC(=O)c1ccnc2c(NC(=O)CCOCCOCCOCCOCCOCCOCCNC(=O)[C@H](CCCCNC(=O)CN3CCN(CC(=O)[O-])CCN(CC(=O)[O-])CCN(CC(=O)[O-])CC3)NC(=O)CCCc3ccc(I)cc3)cccc12.[177Lu+3] | U-87 MG tumour model | – | host not given, tumour | 48 h, tumour-bearing | – | tracer uptake | 1.58 %ID/g
COc1ccc(/C=C/C(=O)c2ccccc(=O)c2O)cc1 | HepDES19 | cell growth or viability, MTS | – | 72 h | – | CC50 | 35.5 µM
C=C(NC(=O)c1csc(-c2nc3c(cc2O)-c2nc(cs2)C(=O)NC(C(C)O)C(=O)NC(=C(C)OC)c2nc(cs2)C(=O)NC2c4nc(cs4)C(=O)NC(COC(=O)c4c5c6c(cccc6n4O)COC(=O)C(OC4CC(C)(O)C(N(C)C)C(C)O4)C2OC5)c2nc-3cs2)n1)C(N)=O (centres unmarked) | – | – | cynomolgus monkey, both sexes, plasma | intravenous infusion, 3 mg/kg, multiple doses, day 7 | – | AUC(0-inf) | 23500 ng·h/mL
COc1cccc(OC)c1-c1cc(C(=O)NC2(C(=O)O)C3CC4CC(C3)CC2C4)nn1-c1ccc(C(=O)NCCNC(=O)[C@H](CCCCNC(=O)[C@H](CC(C)C)NC(=O)C2OC2C(=O)O)NC(=O)CN2CCN(CC(=O)[O-])CCN(CC(=O)[O-])CCN(CC(=O)[O-])CC2)cc1C(C)C.[177Lu+3] (mixture of isomers) | HT-29 tumour model | – | host not given, blood | 72 h, tumour-bearing | – | tracer uptake | 0.034 %ID/g
Cn1nc(C=NOCc2ccc(-c3nc4cc(-c5ccccc5)ccn4c3Nc3ccc(C(=O)O)cc3)cc2)cc1-c1ccccc1 | TDP1 | enzyme activity, inhibitor | – | 100 µM, unpurified compound | – | inhibition | 28.2%
CC(C)OCCOCc1ccc(OCC(O)CN(N=O)C(C)C)cc1 (centres unmarked) | Escherichia coli | enhanced Ames test | WP2 uvrA | 5000 µg/plate, without S9 | reference: solvent control | revertant fold increase | 0.7 fold
O=C1C2CC3CC1CC(C(=O)N1CCN(c4ccc([N+](=O)[O-])c5ncccc45)CC1)(C3)C2 | Salmonella typhimurium | Ames test | TA1535 | 0.13 µg/well, without S9 | reference: vehicle | revertant fold increase | 0.5

A few entries again:
Structure (SMILES) | target or system | test | test system | setting | scale | quantity | result
O=c1c(O)ccc(-c2cnc3ccccc3c2)cc1O | HepDES19 | cell growth or viability, MTS | – | 72 h | – | CC50 | 16.9 µM
